Results from different studies.
Each numbered part is a random draw from the data of one study; scales do not carry over between parts. Substitutions count along the parent as printed.

Block 1 — target: CCNF, cyclin fold, Cln2 fusion (human); method: yeast growth competition, sequencing; matrix: yeast; setting: strong parent motif; reference: not given; direction: higher = stronger binding
Parent: CDC6 docking peptide (human); TLKGRRLVFDNQL
Substitution | normalised enrichment score
V8N | 9.46
G4S | 4.61
Q12W | 9.86
L13I | 7.96
T1L | 8.57

Block 2 — method: RNA Bind-n-Seq; form: RNA; matrix: in vitro; concentration: 365 nM; reference: no-protein control; direction: higher = stronger binding
Target: RNA binding protein fox-1 homolog 2, RRM domain, GST-SBP tag (RBFOX2, Homo sapiens, UniProt O43251-10, residues 100-194)
Setting: natural RNA segment, single round, ends assumed
Shared flanks, not repeated: GGGAGUUCUACAGUCCGACGAUC … UGGAAUUCUCGGGUGCCAA
Construct (chain): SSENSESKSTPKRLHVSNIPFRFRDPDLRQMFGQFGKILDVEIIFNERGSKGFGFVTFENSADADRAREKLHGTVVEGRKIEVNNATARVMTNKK
Strand | RBNS enrichment (R)
UCAAUUUUAAAGCAUUAUUAAGACUGUAUGAACAUUUAAAAAUCCACCUAUAUUAAGUACAUCACAAGAACACAGAGGACUGAUUUUCUUUUUAUAAUUUAAUAUGUCAU | 0.539
AAAUAAGUCACCGUGUUGGAUUGAAAGCUUCAAAAUUUGAAAGAAUUCCAUCAAAUACUUGCUGUGUAAAUGUUUCUGGACUUUAUGUUAUUUAAUUUACUGACUGAAAU | 0.773
GGGGUGGGAUUGAAGGAAACCCUCUCCUCUCCCCUUCCCUUCUCUCUCCUGUCCAUGGGAAGCUUUUCCCCCUCUGCAGGGCUCCCUCAGCUGGACCAUCGUCCCUGCUU | 0.334
UUUUUUAAAGCAAACUUGUCCUUUGGUUUUGCAGAACAGGCCUGCUCCCUCUCAUCUAGCCCAUCAUUUCUUGGGGCCUGAACCCCAGUGGUCCAAAGUAUUGCUUGUGA | 1.77
CAGGUAGGACCUGAUAUUUCGGCGAGGGACCAUUUCAGACCAAAAUGUACUGUUAAUUUUUUUUAAUUAAAGUAUAUUAAAGGUUAAAUAAAACAUGACUGUGUCAGACU | 0.352

Block 3 — method: protein-binding microarray; form: double-stranded DNA, one strand shown; matrix: in vitro; concentration: 2200 nM top; setting: 60-bp whole probe; with: salmon DNA 0.4 mg/ml; reference: random background probes; direction: higher = stronger binding; shared flanks, not repeated: GCCTAGCAC … GTCTTGATTCGCTTGACGCTGCTG
Target: Interferon regulatory factor 7, full length, phosphomimetic (IRF7, Homo sapiens, UniProt Q92985, residues 1-503, S471D/S472D/S475D/S476D/S477D/S483D/S484D/S487D)
Sequence of UniProt Q92985 (whole entry, unmodified, looked up): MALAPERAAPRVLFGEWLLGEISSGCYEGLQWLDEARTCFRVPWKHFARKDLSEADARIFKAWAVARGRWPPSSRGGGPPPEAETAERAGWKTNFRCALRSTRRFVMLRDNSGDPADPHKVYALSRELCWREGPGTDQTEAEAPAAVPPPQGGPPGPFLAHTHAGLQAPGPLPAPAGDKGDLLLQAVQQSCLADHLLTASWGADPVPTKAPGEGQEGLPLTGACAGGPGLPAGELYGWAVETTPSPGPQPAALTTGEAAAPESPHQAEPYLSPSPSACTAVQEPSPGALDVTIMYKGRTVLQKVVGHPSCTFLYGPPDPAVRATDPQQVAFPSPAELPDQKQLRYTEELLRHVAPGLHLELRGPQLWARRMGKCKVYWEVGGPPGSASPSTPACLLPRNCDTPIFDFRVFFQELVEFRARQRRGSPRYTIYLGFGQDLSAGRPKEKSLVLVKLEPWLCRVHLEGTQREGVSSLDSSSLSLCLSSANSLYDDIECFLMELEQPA
Strand | fitted relative affinity [z-score]
TTAGATCTCAGTTTCGATTCGTGCTAG | 10.9
TTAGGACTGGGGACTGGGTTGGTGCTA | -1.02
AGAAACTTGTGTTTGTCCCTGTGCTAG | 1.06
TCACATATACACTGTGTAACTGTGCTA | 0.929
GGAGAAAAATCATGAAAATAGTGCTAG | -1.42
TCATGTGCCCATCTCTGACTGTGCTAG | 0.76
GACGGTTTCCTACTGCTGAGGTGCTAG | 1.74

Further values, each from its own experiment
Substance | target | test | system | conditions | scale | endpoint | value
PhoQ, residues 284 288 289 292 302 303 AGCYAI | PhoP, residues 12 14 15 18 19 SQCLL (Escherichia coli, UniProt P23836) | Sort-seq, item: YFP reporter | E. coli | PhoQ-PhoP variant library, with: 10 µM Mg2+ | reference: high Mg2+ state, higher = stronger signaling | fold induction | 3.08

Repeated from above (block 3):
Strand | fitted relative affinity [z-score]
GACGGTTTCCTACTGCTGAGGTGCTAG | 1.74
